Published values from different studies.
Each numbered part is a random draw from the data of one study; scales do not carry over between parts.

Study 1
Target: Interferon regulatory factor 3, full length, phosphomimetic (IRF3, Homo sapiens, UniProt Q14653, residues 1-427, S386D/S396D/S398D/S402D/T404D/S405D)
Method: protein-binding microarray
Form: double-stranded DNA, one strand shown
Sample: in vitro
Tested at: 2540 nM top
Notes: 60-bp whole probe
With: salmon DNA 0.4 mg/ml
Baseline: random background probes
Direction: higher = stronger binding
Shared flanks, not repeated: GCCTAGCAC … GTCTTGATTCGCTTGACGCTGCTG
Construct (chain): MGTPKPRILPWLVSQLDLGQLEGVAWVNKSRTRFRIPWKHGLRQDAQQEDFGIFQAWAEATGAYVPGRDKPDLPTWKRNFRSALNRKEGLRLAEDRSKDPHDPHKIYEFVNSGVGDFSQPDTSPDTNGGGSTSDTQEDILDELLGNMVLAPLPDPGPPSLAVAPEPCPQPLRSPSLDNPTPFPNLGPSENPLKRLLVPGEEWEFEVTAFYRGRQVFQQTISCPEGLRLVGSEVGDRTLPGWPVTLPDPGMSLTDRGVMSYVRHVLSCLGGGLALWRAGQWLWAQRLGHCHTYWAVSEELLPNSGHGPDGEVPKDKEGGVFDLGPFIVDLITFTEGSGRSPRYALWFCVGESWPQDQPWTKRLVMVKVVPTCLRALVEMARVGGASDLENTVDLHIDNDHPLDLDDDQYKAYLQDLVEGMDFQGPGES
Under “fitted relative affinity”, `GGCCTTGGAGGGGGTGGGTGGTGCTAG` is recorded as -0.714 z-score.
For `GACGGACTGGGACCGGGGACGTGCTAG`, “fitted relative affinity” read -0.633 z-score.
For `GACGGCTTCGGGTATCGGGACGTGCTA`, “fitted relative affinity” read -0.449 z-score.
For `TCAAGTCCCACATCTCTGACTGTGCTA`, “fitted relative affinity” read 0.226 z-score.
`GTAGGACTGCTTTTCCTTTAGTGCTAG` — result for “fitted relative affinity”: 0.836 z-score.
For `GACGGACTGGGTTTCGGGTCGTGCTAG`, “fitted relative affinity” read 1.67 z-score.
`TCATGTTTTTCATTGTTACTGTGCTAG` — result for “fitted relative affinity”: 0.6 z-score.
`GACGATTTCAGTTCCGAGACGTGCTAG`: “fitted relative affinity” 3.13 z-score.
For `GACGAACTGAGTCTCGAGATGTGCTAG`, “fitted relative affinity” read -0.265 z-score.
`CTCTTGATCCCGAACTGGCCGTGCTAG` — result for “fitted relative affinity”: 0.156 z-score.
Under “fitted relative affinity”, `TCAACTTTGGAGATGACACTGTGCTAG` is recorded as -0.188 z-score.
`TGAGATTTCCATTATTGCTTGTGCTAG` — result for “fitted relative affinity”: 1.83 z-score.
Under “fitted relative affinity”, `TTAGGTATGGGGACTGGGTTAGTGCTA` is recorded as -0.888 z-score.
`TTAGATTTCGGGTATAGATTAGTGCTA` — result for “fitted relative affinity”: 1.14 z-score.
Under “fitted relative affinity”, `GACGAACTGAATTTCGAGACGTGCTAG` is recorded as 0.504 z-score.
`TTAGGACTGCAACTGCTTTAGTGCTAG`: “fitted relative affinity” -0.577 z-score.
Under “fitted relative affinity”, `TCAGGTTTCGGGTATCGGTTAGTGCTA` is recorded as 4.74 z-score.
`TTAGGTATCGGTATGGGTTAGTGCTAG`: “fitted relative affinity” 2.67 z-score.
`TCATCCATCACTTTCCAACTGTGCTAG` — result for “fitted relative affinity”: 2.45 z-score.
For `GACGGTTGCGGGTATCGGGACGTGCTA`, “fitted relative affinity” read 1.37 z-score.
`TTAGCACTGGACACTGGGTTAGTGCTA` — result for “fitted relative affinity”: -1.06 z-score.
For `GACGATTTCACTTTCGAGACGTGCTAG`, “fitted relative affinity” read 4.44 z-score.

Study 2
Target: RNA binding protein fox-1 homolog 2, RRM domain, GST-SBP tag (RBFOX2, Homo sapiens, UniProt O43251-10, residues 100-194)
Method: RNA Bind-n-Seq
Form: RNA
Sample: in vitro
Tested at: 365 nM
Notes: natural RNA segment, single round, ends assumed
Baseline: no-protein control
Direction: higher = stronger binding
Construct (chain): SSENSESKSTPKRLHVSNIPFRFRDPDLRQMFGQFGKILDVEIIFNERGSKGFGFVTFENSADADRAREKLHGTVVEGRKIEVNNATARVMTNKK
`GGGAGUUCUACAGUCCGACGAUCUGUGCUAUUUAUUCUUGCACGAUUUAGGCAAUUAUCUCUCUUCCAGGGAGUACCUUUUUUUCUAGUUGAGAAUUAAUAAUGGUCCAUCUCUUUUGAUCAUAUCAAGCUAGUGGAAUUCUCGGGUGCCAA` — result for “RBNS enrichment (R)”: 0.299.
`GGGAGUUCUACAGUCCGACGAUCUCAGACAAGAACUCCCUGGUUGAAAGAAGCCACCUCGAUGCAAAGGCUCAAGGUCCAGGGAGAGACAACAGAGGAGUGUCCAAGACUUGCCCACACCUCCUCCCAUUUGCUGGAAUUCUCGGGUGCCAA`: “RBNS enrichment (R)” 0.429.
For `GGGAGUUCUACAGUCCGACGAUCUUGAUGGCUGGGUCCUUGGGCCUGGCCAGUCUUCCUCUUAGCCUCUGGAUCUAGAAGGGACCAUAAGAGGAGUAGGCCCUGGUUCCUGCUGUCCUGGUGGCUGGGCCCAGUGGAAUUCUCGGGUGCCAA`, “RBNS enrichment (R)” read 0.293.
`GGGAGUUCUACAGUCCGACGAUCCUGUUCAGUUUAAAAUACUGUAGAUAAUUAACCAAGGUAGAAUGACCUUGUAAUGUAACUGCUCUUGGGCAAUAUUCUCUGUACAUAUUAGCGACAACAGAUUGGAUUUUUGGAAUUCUCGGGUGCCAA`: “RBNS enrichment (R)” 1.13.
For `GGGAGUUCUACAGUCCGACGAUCUGUGUAGGAAAUAAUUUAAUUACAAGUCCAGGAAUGGUCUGCUCUACUCAUGGGUGGAGGAGACCAGUGCCGACCCCGUGAGAGCUGAAGGUGAUGCUGAGGUCCCUUGUUGGAAUUCUCGGGUGCCAA`, “RBNS enrichment (R)” read 0.318.
For `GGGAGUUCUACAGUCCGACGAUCUGCUGCCAUGUCUCAGAUGAGGAGGGAGAGAAGGAGGCCGCCAGACUCGAGAGGUGGGAGGAACUCCUUGCACACACCCUGAGCUUUUGCCACUUCUAUCAUUUUUGAGCUGGAAUUCUCGGGUGCCAA`, “RBNS enrichment (R)” read 1.64.
For `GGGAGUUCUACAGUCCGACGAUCGCUUUACCACAGAGCUGCCAACGUCCUUUCACUGUCUCCACACGAUGGCCCAGUAUCCUUGGUUGUGGAUAGGGUCAUCCCUGGCUCCUCACCCAGCACCCAGCUUAACCUGGAAUUCUCGGGUGCCAA`, “RBNS enrichment (R)” read 0.518.
`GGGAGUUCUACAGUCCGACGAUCUCAAAAGAGAUUUACUUUUUUAAAGGACUUUAUCUGAACAGAGAGAUAUAAUAUUUUUCCUAUUGGACAAUGGACUUGCAAAGCUUCACUUCAUUUUAAGAGCAAAAGACUGGAAUUCUCGGGUGCCAA` — result for “RBNS enrichment (R)”: 0.284.
`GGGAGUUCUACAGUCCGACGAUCCUGCGGUGGGCUGAUGAGCUGCUUGCAUUUCUGUGACAUUUCCAGAUAUGAUUCUCAGUGGGAUUUUGGAAACUUUGAUUGCUCAAGCUCACCCUUCUUAACAUUCUGUAUGGAAUUCUCGGGUGCCAA` — result for “RBNS enrichment (R)”: 1.13.
Under “RBNS enrichment (R)”, `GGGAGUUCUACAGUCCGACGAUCUGUGUGUUUAAUUUUUGCUUCAAGCUCUGUAGCAGGACCUGCCCCACGCACACCCCUACCCCUCUGUGAGGAGCUGUGGGAAGUGUGGGUUUGUCUCCAGAACAGAAGAGUGGAAUUCUCGGGUGCCAA` is recorded as 0.231.
`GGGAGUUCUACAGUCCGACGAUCAAGUGACAUGAUGUGGCCAAAAAUCCAAACUGUGCAGUUGCGUUGUGACAAACAUGCAAUGUGCUGUAAAAACUCAAUACAGUUCAAAUAAAAUCUCUAUAUUAGUGCUGUGGAAUUCUCGGGUGCCAA` — result for “RBNS enrichment (R)”: 0.3.
For `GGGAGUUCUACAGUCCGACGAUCCAUUGUUUGGUUCCAGAAAACCAACCACCUUUUGGUUAAGUGGUAAAUUAAAAAGAAAAACAGUUUCAAAGAAAAGCUCUGAAUCCACAAAAUGUCUUUCUCCAUGGUUUUGGAAUUCUCGGGUGCCAA`, “RBNS enrichment (R)” read 0.765.

Study 3
Target: Histone acetyltransferase KAT6A, winged helix 2, GST fusion (KAT6A, Homo sapiens, UniProt Q92794, residues 85-181)
Method: protein binding microarray
Form: double-stranded DNA, one strand shown
Sample: in vitro
Tested at: not given
Notes: 8-mer, flanks averaged, mean of 2 arrays, mostly near background
Baseline: not given
Direction: higher = stronger binding
Residues (chain): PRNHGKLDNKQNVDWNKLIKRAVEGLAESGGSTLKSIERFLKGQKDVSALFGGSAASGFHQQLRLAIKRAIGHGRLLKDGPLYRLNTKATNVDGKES
`ACAATACG` gave an E-score of -0.131.
For `GATAAAGA`, the E-score was -0.0057.
The E-score of `ACGGGCGG` is reported as -0.00979.
For `TAGGAAGA`, the E-score was -0.0327.
The E-score of `CGATTGGA` is reported as -0.077.
With `CCTTCAGC` the E-score was -0.0681.
With `AGAGAAGC` the E-score was 0.0598.
`CTACCCTA` gave an E-score of -0.219.
`GGCGTGAC` has an E-score of 0.0596.
For `AAGCGTGA`, the E-score was -0.0901.
With `CAATCCTA` the E-score was -0.0955.
`AGATTTAT` has an E-score of 0.0667.
`GATATATC` gave an E-score of -0.0337.
`ATGCTCAC` gave an E-score of -0.0226.
`AGTTCGCA` has an E-score of 0.0679.
`ACATAGGG` has an E-score of -0.0648.
`CCCGGTGA` gave an E-score of 0.0806.
`ATGCAGGA` gave an E-score of -0.269.
`ATGAATAG` has an E-score of -0.101.
`ATTACGTC` has an E-score of -0.163.
For `CGATTATC`, the E-score was 0.00422.
The E-score of `CTGGCCAG` is reported as -0.0847.
The E-score of `AAGGTGAG` is reported as -0.125.
With `CCCTAAGA` the E-score was -0.00769.
For `ATCGTCAG`, the E-score was -0.0256.

Further values, each from its own experiment
The fold induction of `PhoQ, residues 284 288 289 292 302 303 QWQEDG` is reported as 4.76 (PhoP, residues 12 14 15 18 19 SEGLL (Escherichia coli, UniProt P23836); Sort-seq, measured: YFP reporter; E. coli; PhoQ-PhoP variant library, with: 10 µM Mg2+; baseline: high Mg2+ state, higher = stronger signaling).

A few entries again (study 3):
The E-score of `CGATTGGA` is reported as -0.077.
With `CCTTCAGC` the E-score was -0.0681.
With `AGAGAAGC` the E-score was 0.0598.
`CTACCCTA` gave an E-score of -0.219.
`GGCGTGAC` has an E-score of 0.0596.
For `AAGCGTGA`, the E-score was -0.0901.
